Assay results gathered from unrelated publications.
Protocols differ between the studies behind these lines. ± marks the error that the study gave.

The tissue uptake of `N=C(N)NCCC[C@@H]1NC(=O)[C@H](CCCCNC(=O)CC[C@H](NC(=O)CCOCCOCCOCCOCCNC(=O)CC[C@H](NC(=O)CN2CCN(CC(=O)O)CCN(CC(=O)O)CCN(CC(=O)O)CC2)C(=O)NCCOCCOCCOCCOCCC(=O)N[C@@H](CCC(=O)NCCCC[C@@H]2NC(=O)[C@@H](Cc3ccccc3)NC(=O)[C@H](CC(=O)O)NC(=O)CNC(=O)[C@H](CCCNC(=N)N)NC2=O)C(=O)NCCCC[C@@H]2NC(=O)[C@@H](Cc3ccccc3)NC(=O)[C@H](CC(=O)O)NC(=O)CNC(=O)[C@H](CCCNC(=N)N)NC2=O)C(=O)NCCCC[C@@H]2NC(=O)[C@@H](Cc3ccccc3)NC(=O)[C@H](CC(=O)O)NC(=O)CNC(=O)[C@H](CCCNC(=N)N)NC2=O)NC(=O)[C@@H](Cc2ccccc2)NC(=O)[C@H](CC(=O)O)NC(=O)CNC1=O` [indium-111 labelled] is reported as 4.04 ± 1.11 %ID/g (female athymic nude mice, intestine; intravenous, 3 µCi, 24 h, U-87 MG glioma xenograft).
The tissue uptake of `CC(C)C[C@H](NC(=O)[C@H](Cc1ccc(O)cc1)NC(=O)[C@@H](CCCNC(=N)N)NC(=O)[C@@H](CO)NC(=O)[C@H](Cc1ccccc1)NC(=O)[C@H](CC1CCCCC1)NC(=O)[C@H](CC(=O)O)NC(=O)CCC(C(=O)O)N1CCCN2CCN(CCCN(CC(=O)O)CC2)CC1)C(=O)N[C@@H](Cc1c[nH]c2ccccc12)C(=O)N[C@@H](CO)C(=O)O` (stereo partly shown) [copper-64 labelled] is reported as 1.1 ± 0.1 %ID/g (female NMRI nude mice, heart; 1 h p.i.).
With `N=C(N)NCCC[C@@H]1NC(=O)[C@H](CCCCNC(=O)CC[C@H](NC(=O)CCOCCOCCOCCOCCNC(=O)CN2CCN(CC(=O)O)CCN(CC(=O)O)CCN(CC(=O)O)CC2)C(=O)NCCCC[C@@H]2NC(=O)[C@@H](Cc3ccccc3)NC(=O)[C@H](CC(=O)O)NC(=O)CNC(=O)[C@H](CCCNC(=N)N)NC2=O)NC(=O)[C@@H](Cc2ccccc2)NC(=O)[C@H](CC(=O)O)NC(=O)CNC1=O` [indium-111 labelled] the tissue uptake was 0.24 ± 0.1 %ID/g (female athymic nude mice, muscle; intravenous, 3 µCi, 72 h, U-87 MG glioma xenograft).
With `CSCC[C@H](NC(=O)[C@H](CC(C)C)NC(=O)[C@H](Cc1c[nH]cn1)NC(=O)CNC(=O)[C@@H](NC(=O)[C@H](C)NC(=O)[C@H](Cc1c[nH]c2ccccc12)NC(=O)[C@H](CCC(N)=O)NC(=O)CCCCNC(=O)CSCCSCCP(CO)CO)C(C)C)C(N)=O` [technetium-99m labelled] the tissue uptake was 0 %ID (CF-1 mice, female, brain; intravenous, 24 h).
With `N=C(N)NCCC[C@@H]1NC(=O)[C@H](CCCCNC(=O)CCOCCOCCOCCOCCNC(=O)CC[C@H](NC(=O)[C@H](CCCCNC(=O)c2ccc(NN)nc2)NC(=O)c2ccc(NN)nc2)C(=O)NCCOCCOCCOCCOCCC(=O)NCCCC[C@@H]2NC(=O)[C@@H](Cc3ccccc3)NC(=O)[C@H](CC(=O)O)NC(=O)CNC(=O)[C@H](CCCNC(=N)N)NC2=O)NC(=O)[C@@H](Cc2ccccc2)NC(=O)[C@H](CC(=O)O)NC(=O)CNC1=O` [technetium-99m labelled] the tissue uptake was 9.94 ± 1.65 %ID/g (female athymic nude mice, kidneys; intravenous, 0.1 MBq, 1 h, U-87 MG glioma xenograft).
For `CSCC[C@H](NC(=O)[C@H](CC(C)C)NC(=O)[C@H](Cc1c[nH]cn1)NC(=O)CNC(=O)[C@@H](NC(=O)[C@H](C)NC(=O)[C@H](Cc1c[nH]c2ccccc12)NC(=O)[C@H](CCC(N)=O)NC(=O)CNC(=O)[C@H](CO)NC(=O)CNC(=O)CCCCCCCNC(=O)CCC(=O)Nc1ccc(CNC23CNCCNCC(N)(CNCCNC2)CNCCNC3)cc1)C(C)C)C(N)=O` [copper-64 labelled], the tissue uptake was 7.08 ± 0.268 %ID/g (female SCID mice, PC-3 xenograft, kidney; intravenous, 0.6 MBq, 1 h).
`N=C(N)NCCC[C@@H]1NC(=O)[C@H](CCCCNC(=O)CC[C@H](NC(=O)[C@H](CCCCNC(=O)c2ccc(NN)nc2)NC(=O)c2ccc(NN)nc2)C(=O)NCCCC[C@@H]2NC(=O)[C@@H](Cc3ccccc3)NC(=O)[C@H](CC(=O)O)NC(=O)CNC(=O)[C@H](CCCNC(=N)N)NC2=O)NC(=O)[C@@H](Cc2ccccc2)NC(=O)[C@H](CC(=O)O)NC(=O)CNC1=O` [technetium-99m labelled] gave a tissue uptake of 0.98 ± 0.09 %ID/g (female athymic nude mice, eyes; intravenous, 0.1 MBq, 1 h, U-87 MG glioma xenograft).
With `CSCC[C@H](NC(=O)[C@H](CC(C)C)NC(=O)[C@H](Cc1c[nH]cn1)NC(=O)CNC(=O)[C@@H](NC(=O)[C@H](C)NC(=O)[C@H](Cc1c[nH]c2ccccc12)NC(=O)[C@H](CCC(N)=O)NC(=O)CCCCCCCNC(=O)CCC(=O)Nc1ccc(CNC23CNCCNCC(N)(CNCCNC2)CNCCNC3)cc1)C(C)C)C(N)=O` [copper-64 labelled] the tissue uptake was 8.26 ± 0.452 %ID/g (female SCID mice, PC-3 xenograft, liver; intravenous, 0.6 MBq, 4 h).
The tissue uptake of `N=C(N)NCCC[C@@H]1NC(=O)[C@H](CCCCNC(=O)CCOCCOCCOCCOCCNC(=O)CC[C@H](NC(=O)CCOCCOCCOCCOCCNC(=O)[C@H](CCCCNC(=O)c2ccc(NN)nc2)NC(=O)c2ccc(NN)nc2)C(=O)NCCOCCOCCOCCOCCC(=O)NCCCC[C@@H]2NC(=O)[C@@H](Cc3ccccc3)NC(=O)[C@H](CC(=O)O)NC(=O)CNC(=O)[C@H](CCCNC(=N)N)NC2=O)NC(=O)[C@@H](Cc2ccccc2)NC(=O)[C@H](CC(=O)O)NC(=O)CNC1=O` [technetium-99m labelled] is reported as 1.09 ± 0.21 %ID/g (female athymic nude mice, eyes; intravenous, 0.1 MBq, 1 h, U-87 MG glioma xenograft).
`N=C(N)NCCC[C@@H]1NC(=O)[C@H](CCCCNC(=O)CCOCCOCCOCCOCCNC(=O)CN2CCN(CC(=O)O)CCN(CC(=O)O)CCN(CC(=O)O)CC2)NC(=O)[C@@H](Cc2ccccc2)NC(=O)[C@H](CC(=O)O)NC(=O)CNC1=O` [indium-111 labelled] has a tissue uptake of 2.56 ± 0.4 %ID/g (athymic nude mice, female, U-87 MG glioma xenograft, U-87 MG tumour; intravenous, 3 µCi, 4 h).

For quick reference, copied from above:
With `N=C(N)NCCC[C@@H]1NC(=O)[C@H](CCCCNC(=O)CC[C@H](NC(=O)CCOCCOCCOCCOCCNC(=O)CN2CCN(CC(=O)O)CCN(CC(=O)O)CCN(CC(=O)O)CC2)C(=O)NCCCC[C@@H]2NC(=O)[C@@H](Cc3ccccc3)NC(=O)[C@H](CC(=O)O)NC(=O)CNC(=O)[C@H](CCCNC(=N)N)NC2=O)NC(=O)[C@@H](Cc2ccccc2)NC(=O)[C@H](CC(=O)O)NC(=O)CNC1=O` [indium-111 labelled] the tissue uptake was 0.24 ± 0.1 %ID/g (female athymic nude mice, muscle; intravenous, 3 µCi, 72 h, U-87 MG glioma xenograft).
